# Experimental data gathered from unrelated publications.
# Every numbered part comes from another study and shows a few of its results, in no order.

# Study 1 — technique: RNA Bind-n-Seq; molecule type: RNA; matrix: in vitro; concentration: 365 nM; baseline: no-protein control; direction: higher = stronger binding
# Target: RNA binding protein fox-1 homolog 2, RRM domain, GST-SBP tag (RBFOX2, Homo sapiens, UniProt O43251-10, residues 100-194)
# Notes: natural RNA segment, single round, ends assumed
# Constant ends, left off below: GGGAGUUCUACAGUCCGACGAUC … UGGAAUUCUCGGGUGCCAA
# Construct (chain): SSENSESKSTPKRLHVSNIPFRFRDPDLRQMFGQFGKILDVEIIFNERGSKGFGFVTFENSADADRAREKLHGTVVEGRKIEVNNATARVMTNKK
Strand,RBNS enrichment (R)
AUAACCAGCAGUCAGAGAUUCUUUUUUAAUCCUUGGAGACAGGGAAAGGGACAGAUAGCUUUCCAAGGACAUGAGACUGUGCAAAGCCUCUUUGCUGUUUCUCUGGGCUC,0.346
GAGAGGCUCUACAUAAUCCAGGAGGGCAGGAUCCUCUACAAGGGUAAAUCUGGCCCUUGGAACUACAACCCAGAGGAAGUUCGUGCUGUUCUGGAAAAGCUCCACAGUUA,0.233
UUCUAUGCCUUAUUUGAGUUAUCACUUGGAGGGAGGUGGAAGUUGACUCUCUUUUUCACUGUAGAAUAAUGUGGAAAUAACCCUAGAUAAAAAUUCAGUCUGAUAACCUC,0.69
AAAAGUAAUUUGCUUAUUCAGUGGGCAUGUAAAGAGUCUGGCCACCAUGUCCCCUCUGCACCGUGACUUGGUGAUGGCUUUGUGGACAUGGCUGAAGCUGGAUGAGAUGU,0.646
AAAAUCAUGUUCUCUAUUUAUGACUCUUCCUAGGGCAAUGUGUCUGGACAGAUUGUAAGAGUAAGUCAUUUUCCUAAAGAAUUAGAUAUUUGUCACUGCCUAUACCUGCA,1.36
GGUUGAAUUUGAUACACACAGGAAGUUUUCUUGAAGAACAAUCCUUUCGCUUUUCUUUUUUCUUGAGAGAUCUAAAGAGAAACUGUAGAUUGUUUUCCUGACAGCAAAAG,0.486
UAGCUGUUCACCUUGAAGACAGGCCUUAGUGUCACGCAGGUUUAUUACAGUGGCAUGAUGGUGACCUGUGCAGUCACUGAGCUGUAGGAGUGAGGCAUGUGCUGCACGUC,13.9
AGGGGAUGUUGUUCUGAGUUGAGUCUAGUUUUUCUUUUGCACCAGGAAAUAAAACAGUUUUUGUUUGUUUCAGCUGGCCUCCUAUUUUGGACCCCCUGGGAAAGACAUGC,1.03
ACCCAUUCCCUGCUUGCGCCUAGGGUGUUUUCCAGAUAGCCCAGAGUUCCAGCUUUGACAGCCUGAUGACCUCCAUUUUCAUAUGAAUGAUGCCUGCACCCCCACACCUC,4.69
GAUGAGUGACUUUAUUGAUUUGAGCAGCAUAUGCUGUGAUUGGCUGCCCUGCAAAUUUGUUUCCCUUAAGGAACCCUCACCAACUAUCUCUGCUGGAUUUGGGAGUUCCG,0.425
CCACCCCGCAAGUCACAGGCAUUCCUUUGACAGCCCCCUUCACCGCCCCUCAAAUACAGACAUCUGCUUUCAUGUGGAGACUGUCUCCAGGCCUUAUUGAGACCAGACCC,0.471
AAAUCUGUGAUAAAAAGAAAGACUAAAGAAAUUUUCCUAAAGGACCCCAUCAUUUAAAAAAUGGACCUGAUAAUAUGAAGCAUCUUCCUUGUAAUUGUCUCUGACCUUUU,0.492

# Study 2 — technique: protein-binding microarray; molecule type: double-stranded DNA, one strand shown; matrix: in vitro; concentration: not given; direction: higher = stronger binding
# Target: Protein max, full length (MAX, Homo sapiens, UniProt P61244-2, residues 1-151)
# Notes: k-mer, scored over probes, only values ≥0.25
Strand,E-score
CGGCACAC,0.254
CACGTTGC,0.464
CGTGTCGC,0.341
ACGTGAGA,0.38
ACATGACG,0.288
CGTGATGA,0.294
GCATGCAA,0.376
ATGTGACG,0.357
AACTCGTG,0.391
CCATGTGC,0.487
AGGCCACG,0.337
CGACATGA,0.27
AAGCATGG,0.445
CGCGTCAC,0.264
ATCCATGC,0.339
CACGCAGC,0.35
ACGGGGTG,0.282
GCACGCTA,0.4
GTGACTCA,0.322
CCACCTGG,0.403
ATGCGCGC,0.274
ATGTGAAC,0.287

# Study 3 — technique: RNA Bind-n-Seq; molecule type: RNA; matrix: in vitro; concentration: 200 nM; notes: whole 134-nt RNA, ends assumed; added: 150 mM LiCl; baseline: input library; direction: higher = stronger binding; all molecules: 7-deaza-guanosine replaces G
# Target: Ras GTPase-activating protein-binding protein 1, full length (G3BP1, Homo sapiens, UniProt Q13283)
# UniProt Q13283, sequence (whole entry, looked up): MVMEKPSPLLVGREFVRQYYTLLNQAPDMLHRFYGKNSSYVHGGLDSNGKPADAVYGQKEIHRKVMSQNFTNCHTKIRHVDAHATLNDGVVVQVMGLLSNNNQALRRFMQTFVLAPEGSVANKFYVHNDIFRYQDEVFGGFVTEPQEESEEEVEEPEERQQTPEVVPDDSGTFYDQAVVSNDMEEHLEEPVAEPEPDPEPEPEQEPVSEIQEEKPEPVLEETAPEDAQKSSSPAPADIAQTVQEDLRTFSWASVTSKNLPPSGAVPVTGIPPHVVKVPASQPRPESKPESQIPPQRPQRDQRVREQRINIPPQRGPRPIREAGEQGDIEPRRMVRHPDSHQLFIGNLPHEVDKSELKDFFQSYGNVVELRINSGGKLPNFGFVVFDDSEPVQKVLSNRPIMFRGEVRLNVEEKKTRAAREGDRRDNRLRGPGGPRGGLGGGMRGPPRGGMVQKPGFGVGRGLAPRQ
# Constant ends, left off below: GGGAGUUCUACAGUCCGACGAUC … UGGAAUUCUCGGGUGUCAAGG
Strand,log2 enrichment
UCCUCAAGUCCUGUGCUACACAUCGUAUGUACCGAAUCGGAGGAGGGGAGGGAAAGUAUUAUGUUACGCCGUUCGGAUCUGCACUUCCAG,-0.6
GCAGGAAGUAAAAACAAAUGGAAAUGCUUCGGAUAGUGGCAGGGGUGGGGGUUGCUAAGGAAAAAAUGGGAUGGGAGUGGGUAAAGAGUU,0.424
UAUCUUAUCUACACAUGGGGGACUGAAGAGUUCGAGAGAUCCAAGAGGAAGAAUCCAGCUGCCUAUGAAAAUGACAAAUGAGCAACGCAU,-0.77
UGGCCCUGGUGGCAUGCGGGGAGGAAGAGGUGGCCUCAUGGAUCGUGGUGGUCCCGGUGAAAUGUUCAGAGGUGGCCGUGGUGGAGACAG,0.0119
UGGGAGGUGGAUUUUGUUUAUUUUUUUAGCUCAUUUCCAGGGGUGGGAAUUUUUUUUUAAUUUGUGUCAUGAAUAAAGUUGUUUUUGAAA,-0.234
GUCAAGAAAGAUCUUAAGACUGGUCAUUCAAAGGGGUUUGGCUUUGUUCGUUUUACGGAAUAUGAAACACAAGUGAAAGUAAUGUCACAG,-1.93
CCUGUGCUACACAUCGUAUGUACCGAAUCGGGGCCCCCCGGGGCCCCCCGGCCCCCCGGGGAAAGUAUUAUGUUACGCCGUUCGGAUCUG,-1.45
GCAGGAAGUAAAAACAAAUGGAAAUGCUUCGGAAAAUGGCAGGGGUGGGGGUUGCUAAGGAAAGGGUGGGAUGGGAGUGGGUAAAGAGUU,-0.0787
UAACUUUAGAGGAGGAUCUGAUGGAUAUGGCAGUGGACGUGGAUUUGCGGAUGGCUAUAAUGGGUAUGGAGGAGGACCUGGAGGUGGCAA,-0.00761
AAGUCCUGUGCUACACAUCGUAUGUACCGAAUCGGGAAAGGGAAAAAGGGUUUGGGAAAGUAUUAUGUUACGCCGUUCGGAUCUGCACUU,-1.84
AAGUCCUGUGCUACACAUCGUAUGUACCGAAUCGGGGUGGGGAAAGGGGAAAGGGGAAAGUAUUAUGUUACGCCGUUCGGAUCUGCACUU,0.331

# Study 4 — technique: protein binding microarray; molecule type: double-stranded DNA, one strand shown; matrix: in vitro; concentration: not given; baseline: not given; direction: higher = stronger binding
# Target: Histone acetyltransferase KAT6A, winged helix 1, GST fusion (KAT6A, Homo sapiens, UniProt Q92794, residues 1-85)
# Notes: 8-mer, flanks averaged, mean of 2 arrays, mostly near background
# Residues (chain): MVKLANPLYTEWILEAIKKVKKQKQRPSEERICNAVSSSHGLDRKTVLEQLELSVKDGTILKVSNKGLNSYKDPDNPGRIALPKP
Strand,E-score
CGGTCGCA,0.253
GTTATTGA,-0.203
AGCCGGGA,0.0773
CGGAGGAC,0.194
CCAGGACG,0.0315
TAAGCACA,0.0855
AAACAAAA,-0.104
AGATGCTG,-0.177
CCTAAGCC,-0.131
AATTAGTC,-0.0282
TCAGGTCA,-0.176
GGTTGTAC,-0.00945
GATCATAA,-0.133
CGCGACAG,0.225
GGTAGAAA,0.0652
CGCAGCAA,0.0331
AAGGCGGT,0.136
CACCCTGA,-0.236
ACTACGTG,0.0114

# Study 5 — technique: protein-binding microarray; molecule type: hairpin DNA; matrix: in vitro; concentration: not given; baseline: not given; direction: higher = stronger binding
# Target: Runt-related transcription factor 1, full length (RUNX1, Homo sapiens, UniProt Q01196-8, residues 1-480)
# Notes: whole hairpin DNA, median over replicate spots
Strand,median fluorescence [a.u.]
CTCAGTGCTGTGGGCTGGACTCCTGTCCAGCCCACAGCACTGAGACACTC,1830
GAGGCCCAACCGCGACAGCCTCCTGGCTGTCGCGGTTGGGCCTCACACTC (5mC at 31),5650
GAGGCCTGCGGCGGTTGGCCTCCTGGCCAACCGCCGCAGGCCTCACACTC,2690
GAGGCCTGTTGTGGTTCGCCTCCTGGCGAACCACAACAGGCCTCACACTC (5mC at 17),2470
CTCAGTTCTGTGGGCTGGACTCCTGTCCAGCCCACAGAACTGAGACACTC (5mC at 28),1950
GAGGCCTGTTGTGGTTGGCCTCCTGGCCAACCACAACAGGCCTCACACTC (5mC at 31),1670
GAGGCCGGTCGCGGTTGGCCTCCTGGCCAACCGCGACCGGCCTCACACTC (5mC at 38),2900
GAGGCCTGTTGCGGTCGGCCTCCTGGCCGACCGCAACAGGCCTCACACTC,4760
GAGGCCTGTTGCGGCGGGCCTCCTGGCCCGCCGCAACAGGCCTCACACTC (5mC at 29),2180
GAGGCCCAGCCGCAACAGCCTCCTGGCTGTTGCGGCTGGGCCTCACACTC,2440
CTCAGTGCTGTGGGCTGGACTCCTGTCCAGCCCACAGCACTGAGACACTC (5mC at 38),1970
GAGGCCTGTTGTGGTGGGCCTCCTGGCCCACCACAACAGGCCTCACACTC,2330
GAGGCCCGTTGCGGTTGGCCTCCTGGCCAACCGCAACGGGCCTCACACTC (5mC at 7 37),6030

# Excerpt of the above (study 5):
Strand,median fluorescence [a.u.]
GAGGCCCAACCGCGACAGCCTCCTGGCTGTCGCGGTTGGGCCTCACACTC (5mC at 31),5650
GAGGCCTGCGGCGGTTGGCCTCCTGGCCAACCGCCGCAGGCCTCACACTC,2690
GAGGCCTGTTGTGGTTCGCCTCCTGGCGAACCACAACAGGCCTCACACTC (5mC at 17),2470
CTCAGTTCTGTGGGCTGGACTCCTGTCCAGCCCACAGAACTGAGACACTC (5mC at 28),1950
GAGGCCTGTTGTGGTTGGCCTCCTGGCCAACCACAACAGGCCTCACACTC (5mC at 31),1670
GAGGCCGGTCGCGGTTGGCCTCCTGGCCAACCGCGACCGGCCTCACACTC (5mC at 38),2900
